Published values from different studies.
Each line is one published result; not all experiments were run side by side. ± marks the error that the study gave.

Molecule	test	system	conditions	how to read	endpoint	result
[123I]c1cncc(OC[C@@H]2CCN2)c1	SPECT	human, temporal lobe	intravenous bolus plus infusion, 7.8 mCi	relative to: plasma	tissue/plasma ratio	12.2
CN[C@@](C)(C[18F])C(=O)O		SCID mouse SK-OV-3 xenograft, blood	60 min, post injection		tissue uptake	0.7 ± 0.1 %ID/g
COc1ccc(C[C@@H]2NC(=O)[C@H]([C@@H](C)O)NC(=O)[C@@H]3[C@@H]4CCN3C(=O)[C@@H]3Cc5cn(c6ccc(F)cc56)CCCCCCN(Cc5ccc(cc5)CCNC(=O)[C@]5(C)CCCN5C2=O)C(=O)CCC(=O)N[C@@H](C)C(=O)N[C@H](CNC(=O)CCCCC[N+](C)(C)C)C(=O)N[C@@H](Cc2cccc(c2)CNC(=O)CO4)C(=O)N3)cc1		fasted healthy men, plasma	oral, 10 mg single dose, 24 h, with 1800 mg Labrasol, median		plasma concentration	3.9 nM
CCNc1nc(Cl)nc(NCC)n1	LC-MS/MS	herbicide solution	2 h, 40 °C, with: 365 nm UV exposure		remaining amount	86.2 ± 16.8%
c1cc2ccc3cccc4ccc(c1)c2c34	HPLC-fluorescence	Wistar rat, male, ileum	oral, 4 mg/kg, 24 h		tissue concentration	67 ± 17.9 ng/g
CC[C@H](C)[C@H](NC(=O)[C@H](CO)NC(=O)[C@H](C)NC(=O)[C@@H](NC(=O)CNC(=O)[C@H](CO)NC(=O)[C@@H](NC(=O)[C@@H](NC(=O)[C@H](Cc1c[nH]cn1)NC(=O)[C@@H]1CCCN1C(=O)[C@@H](NC(=O)[C@H](CC(C)C)NC(=O)[C@H](CO)NC(=O)[C@H](CC(C)C)NC(=O)[C@@H](N)Cc1ccccc1)[C@@H](C)CC)[C@@H](C)CC)C(C)C)C(C)C)C(=O)N[C@@H](C)C(=O)N[C@@H](CCCCN)C(=O)N[C@@H](Cc1c[nH]cn1)C(=O)N[C@@H](Cc1ccccc1)C(N)=O	UPLC-MS/MS	rat plasma	0.2 µg/mL, 10 days, -20 °C, long-term stability		concentration found	0.18 µg/mL
icatibant		mouse	intraplantar, 5 µL, 10 mg/mL, 15 min		paw thickness increase	40.7 ± 2.1%
CCCCCOc1ccc(-c2ccc(-c3ccc(C(=O)N[C@H]4C[C@@H](O)[C@@H](O)NC(=O)[C@@H]5[C@@H](O)[C@@H](C)CN5C(=O)[C@H]([C@@H](C)O)NC(=O)[C@H]([C@H](O)[C@@H](O)c5ccc(O)cc5)NC(=O)[C@@H]5C[C@@H](O)CN5C(=O)[C@H]([C@@H](C)O)NC4=O)cc3)cc2)cc1	population PK model	patients aged 5 to < sample A years	intravenous, 3.0 mg/kg loading, 1.5 mg/kg once daily, median, weight-corrected		Vss	0.78 L/kg
O=C(CC(=O)c1ccccc1)c1ccccc1		Sprague-Dawley rat, male, plasma	oral, 250 mg/kg, regular emulsion		absolute bioavailability	7.38 ± 1.66%
O[C@H]1CCCN[C@@H]1CCCn1cnc2c(Cl)c(Cl)ccc21		healthy human volunteers, plasma	oral, 100 mg twice daily, day 14, median		Tmax at steady state	3 h
O=C(O)CN(CCN(CC(=O)O)CC(=O)O)CCN(CC(=O)O)CC(=O)O		beagle dog	intravenous, 300 µM, 90% binding threshold		time above binding threshold	2.9 h
CNC(=O)c1ccc(-c2cnn3ccc(C(=O)N(C)c4ccc(Cl)c(C(=O)OC)c4)cc23)cc1		beagle dogs, both sexes, plasma	oral, 50 mg/kg/day, day 14, 2-week toxicology study		AUC(0-8 h)	120 ng·h/mL

Excerpt of the above:
Molecule	test	system	conditions	how to read	endpoint	result
CN[C@@](C)(C[18F])C(=O)O		SCID mouse SK-OV-3 xenograft, blood	60 min, post injection		tissue uptake	0.7 ± 0.1 %ID/g
O[C@H]1CCCN[C@@H]1CCCn1cnc2c(Cl)c(Cl)ccc21		healthy human volunteers, plasma	oral, 100 mg twice daily, day 14, median		Tmax at steady state	3 h
